Measured values of several laboratories.
Technique: steady-state kinetics
B1: enzyme (Aquifex aeolicus, UniProt O67572); chain MLRSSLLPFSYLYEKIINFRNTLYDKGFLKIKKLPVPVISVGNLSVGGSGKTSFVMYLADLLKDKRVCILSRGYKRKSKGTLIVSEYGNLKVSWEEAGDEPYLMAKLLPHVSVVASEDRYKGGLLALEKLSPEVFILDDGFQHRKLHRDLNILLLKKKDLKDRLLPAGNLREPLKEIRRADALVLTYQEVEPFEFFTGKPTFKMFREFCCLLNSDFEEVPFDILKEREVIAFSGLGDNGQFRKVLKNLGIKVKEFMSFPDHYDYSDFTPEEGEIYLTTPKDLIKLQGYENVFALNFKVKLEREEKLKKLIYRIFY
Chain of UniProt F8G0P2 (whole entry, unmodified, looked up): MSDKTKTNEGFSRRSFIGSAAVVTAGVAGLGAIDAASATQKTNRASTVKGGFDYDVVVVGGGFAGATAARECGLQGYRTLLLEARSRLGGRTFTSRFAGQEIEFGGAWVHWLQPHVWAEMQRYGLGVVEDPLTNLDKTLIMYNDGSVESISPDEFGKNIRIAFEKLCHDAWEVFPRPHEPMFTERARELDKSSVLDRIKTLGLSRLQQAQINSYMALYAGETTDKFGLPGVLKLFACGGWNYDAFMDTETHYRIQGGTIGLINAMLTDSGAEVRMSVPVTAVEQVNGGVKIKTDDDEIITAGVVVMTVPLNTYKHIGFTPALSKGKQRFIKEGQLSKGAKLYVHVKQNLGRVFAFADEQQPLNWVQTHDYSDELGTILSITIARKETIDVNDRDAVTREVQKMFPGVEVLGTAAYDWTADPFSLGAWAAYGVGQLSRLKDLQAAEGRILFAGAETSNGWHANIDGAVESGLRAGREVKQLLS

`B1 (enzyme)` gave a Km of 7 µM (CCCCCCCCCCC[C@@H](O)CC(=O)N[C@H]1[C@H](OC[C@H]2O[C@H](OP(=O)(O)O)[C@H](NC(=O)C[C@H](O)CCCCCCCCCCC)[C@@H](OC(=O)C[C@H](O)CCCCCCCCCCC)[C@@H]2O)O[C@H](CO)[C@@H](O)[C@@H]1OC(=O)C[C@H](O)CCCCCCCCCCC; pH 8.5, 30 °C, apparent).
`dmhA Y158F (Campylobacter jejuni)` has a Km of 210 µM (Nc1nc2c(ncn2[C@@H]2O[C@H](COP(=O)(O)OP(=O)(O)O[C@H]3O[C@H]([C@H](O)CO)[C@@H](O)[C@H](O)[C@@H]3O)[C@@H](O)[C@H]2O)c(=O)[nH]1; pH 7.5, 30 °C).
The Km of `protein (Micromonospora echinospora, UniProt Q8KND2)` is reported as 350 µM (C[S+](CC[C@H](N)C(=O)O)C[C@H]1O[C@@H](n2cnc3c(N)ncnc32)[C@H](O)[C@@H]1O; pH 8, 35 °C).
With `orn (Vibrio cholerae, UniProt Q9KV17)` the Km was 41.2 µM (Nc1nc2c(ncn2[C@@H]2O[C@H](COP(=O)(O)O[C@H]3[C@@H](O)[C@H](n4cnc5c(=O)[nH]c(N)nc54)O[C@@H]3COP(=O)(O)O)[C@@H](O)[C@H]2O)c(=O)[nH]1; pH 8, 37 °C).
`hdhb E18D/G39D/R40A/R41A/T17A (Clostridium sardiniense)` has a Km of 4640 µM (NC(=O)c1ccc[n+]([C@@H]2O[C@H](COP(=O)(O)OP(=O)(O)OC[C@H]3O[C@@H](n4cnc5c(N)ncnc54)[C@H](O)[C@@H]3O)[C@@H](O)[C@H]2O)c1; pH 8, 25 °C, cofactor varied).
With `nicA2 (Pseudomonas putida, UniProt F8G0P2)` the Km was 0.114 µM (CN1CCC[C@H]1c1cccnc1; pH 7.4, 22 °C).
The Km of `Cj1438c (Campylobacter jejuni, UniProt Q0P8H6)` is reported as 47 µM (Nc1ncnc2c1ncn2[C@@H]1O[C@H](COP(=O)(O)OP(=O)(O)OP(=O)(O)O)[C@@H](O)[C@H]1O; pH 8, 25 °C, apparent).
For `nicA2 T250V/T381V (Pseudomonas putida)`, the Km was 2.52 µM (CN1CCC[C@H]1c1cccnc1; pH 7.4, 22 °C).
The Km of `hdhb E18D/G39D/R40L/R41N/T17A (Clostridium sardiniense)` is reported as 330 µM (NC(=O)c1ccc[n+]([C@@H]2O[C@H](COP(=O)(O)OP(=O)(O)OC[C@H]3O[C@@H](n4cnc5c(N)ncnc54)[C@H](O)[C@@H]3O)[C@@H](O)[C@H]2O)c1; pH 8, 25 °C, cofactor varied).
For `dmhA S133T (Campylobacter jejuni)`, the Km was 50 µM (Nc1nc2c(ncn2[C@@H]2O[C@H](COP(=O)(O)OP(=O)(O)O[C@H]3O[C@H]([C@H](O)CO)[C@@H](O)[C@H](O)[C@@H]3O)[C@@H](O)[C@H]2O)c(=O)[nH]1; pH 7.5, 30 °C).
